Measurements pooled from the literature.
Parts stem from different laboratories: compare values within a part only. Substitutions count along the parent as printed.

Block 1
Target: CCNA1, cyclin fold, Cln2 fusion (human)
Method: yeast growth competition, sequencing
Medium: yeast
Setting: weak parent motif
Relative to: not given
Direction: higher = stronger binding
Starting sequence: E2F1 docking peptide (human); PPVKRRLDLETDH; partner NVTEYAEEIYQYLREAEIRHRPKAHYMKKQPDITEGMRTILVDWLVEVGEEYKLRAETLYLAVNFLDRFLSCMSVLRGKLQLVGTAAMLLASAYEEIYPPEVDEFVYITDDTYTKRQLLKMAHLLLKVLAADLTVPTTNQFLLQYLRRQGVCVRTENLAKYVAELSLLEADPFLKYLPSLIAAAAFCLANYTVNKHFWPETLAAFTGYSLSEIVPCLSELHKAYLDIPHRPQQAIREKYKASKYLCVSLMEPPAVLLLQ
Variant	normalised enrichment score
D8E	0.172
H13M	0.613
H13W	0.2
R5C	0.535
V3E	0.527
E10L	0.508
P2N	0.404
D8R	0.374
D12I	0.335
E10N	0.607
D8Y	0.207
L7S	0.286
R6C	0.319
P2M	0.0552
E10C	0.505

Block 2
Target: Interferon regulatory factor 5, full length, phosphomimetic (IRF5, Homo sapiens, UniProt Q13568-2, residues 1-514, S451D/S453D/S456D/S462D)
Method: protein-binding microarray
Form: double-stranded DNA, one strand shown
Medium: in vitro
Concentration: 940 nM top
Setting: 60-bp whole probe
Together with: salmon DNA 0.4 mg/ml
Relative to: random background probes
Direction: higher = stronger binding
All sequences stand within: GCCTAGCAC … GTCTTGATTCGCTTGACGCTGCTG
Oligonucleotide	fitted relative affinity
CTAGTTCTGCTTTGCCTTCAGTGCTAG	0.516 z-score
GTCATTTACATTTTAGTAGTGTGCTAG	0.322 z-score
GACCGTATCGGGACTGGGGACGTGCTA	0.966 z-score
GACGGACTGGGTCTAGGGACGTGCTAG	-0.803 z-score
TTAGGTTTAGACTATCGGTTAGTGCTA	0.303 z-score
TCATTTTTGGAATGTCTTACTGTGCTA	0.194 z-score
TTAGGACTGGGTTGCGGTTAGTGCTAG	0.204 z-score
TTAGGACTGGGTCTCGCTTAGTGCTAG	0.182 z-score
GACGGACTGGACTTTCTGGACGTGCTA	-0.439 z-score
GACGGGATCGGGTTTCGGGACGTGCTA	2.34 z-score
TTAGGGATCGGTTTCGGTTAGTGCTAG	8.53 z-score
TAGTATTTTTTTCCAGAGGGGTGCTAG	1.07 z-score
TTAGGTATCCTACTCCTTTAGTGCTAG	0.0743 z-score
GACGATCTCAGTCTCGAGACGTGCTAG	1.19 z-score
TTAGGTATGCTTCTCCTTTAGTGCTAG	-0.215 z-score
TCAGCTTTGCTTCCTGCACTGTGCTAG	-0.0753 z-score
CTAGGTCTCCTACTGCTTTAGTGCTAG	-0.169 z-score
GACGTTCTCCTACTGCTGACGTGCTAG	0.501 z-score
TGAGGTATCGACTATCGGTTAGTGCTA	3.64 z-score
GACGGTTTCGACACCGGGGACGTGCTA	7.21 z-score
CCAGGGCTGCCAGCCTCCTCGTGCTAG	-0.683 z-score
TCAGTTTTCTCATTCGTACTGTGCTAG	2.15 z-score
GACGATATCGGGACTGGCGACGTGCTA	-0.377 z-score
TTAGGACTGCTTCTCCTTTAGTGCTAG	0.15 z-score
TGGTATTTTTTTCTAATTGAGTGCTAG	1.2 z-score

Block 3
Target: Sal-like protein 4, full length isoform A (SALL4, Homo sapiens, UniProt Q9UJQ4, residues 1-1053)
UniProt Q9UJQ4, sequence (whole entry, looked up): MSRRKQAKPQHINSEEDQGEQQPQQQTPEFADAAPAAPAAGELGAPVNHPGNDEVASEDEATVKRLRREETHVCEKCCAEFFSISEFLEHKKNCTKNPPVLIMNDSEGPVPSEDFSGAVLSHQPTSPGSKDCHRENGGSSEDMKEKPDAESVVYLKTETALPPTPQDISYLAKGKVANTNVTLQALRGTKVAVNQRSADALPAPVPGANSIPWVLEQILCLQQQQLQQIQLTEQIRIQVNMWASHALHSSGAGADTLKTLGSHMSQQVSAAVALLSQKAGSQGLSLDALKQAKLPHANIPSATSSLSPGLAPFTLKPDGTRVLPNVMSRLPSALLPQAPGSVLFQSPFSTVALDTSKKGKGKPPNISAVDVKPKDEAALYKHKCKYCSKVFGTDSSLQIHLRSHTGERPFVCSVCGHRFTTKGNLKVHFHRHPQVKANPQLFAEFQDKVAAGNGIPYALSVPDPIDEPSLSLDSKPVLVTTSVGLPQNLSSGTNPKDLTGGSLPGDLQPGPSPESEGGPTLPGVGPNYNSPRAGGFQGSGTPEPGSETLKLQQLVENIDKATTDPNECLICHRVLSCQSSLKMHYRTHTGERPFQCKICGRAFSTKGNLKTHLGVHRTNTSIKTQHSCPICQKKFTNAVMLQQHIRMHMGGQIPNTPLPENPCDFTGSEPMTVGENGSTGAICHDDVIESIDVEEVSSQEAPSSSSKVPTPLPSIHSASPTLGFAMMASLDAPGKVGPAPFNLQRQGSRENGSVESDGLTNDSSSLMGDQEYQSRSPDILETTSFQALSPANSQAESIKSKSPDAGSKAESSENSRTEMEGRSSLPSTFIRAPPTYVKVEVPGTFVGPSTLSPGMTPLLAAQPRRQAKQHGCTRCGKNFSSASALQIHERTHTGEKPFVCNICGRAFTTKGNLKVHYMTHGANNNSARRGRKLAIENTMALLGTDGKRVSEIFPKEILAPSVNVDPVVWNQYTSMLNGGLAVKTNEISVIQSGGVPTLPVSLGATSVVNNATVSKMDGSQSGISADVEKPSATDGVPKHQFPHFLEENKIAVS
Method: universal PBM
Form: double-stranded DNA, one strand shown
Medium: in vitro
Concentration: 600 nM
Setting: 8-mer, flanks averaged, mean of replicates
Direction: higher = stronger binding
Oligonucleotide	E-score
CACGCAGC	-0.32
CTCCCGTA	-0.137
AAGCGGAA	0.0743
ACACCCCC	-0.236
CGCGCTGA	-0.334
CTTAACGA	0.05
GGGCTGTA	-0.194
ATACAGCA	0.196
AGCTGGTA	-0.151
GCAAAAAA	0.227
AGATCCTC	-0.0878
ACAGTCCG	-0.186
CGTTTAGC	-0.0811
ATTGGCTA	-0.00043
ATGTCAAC	0.244
GCACAGGA	-0.269
ACTTCTAC	0.0724
CCGTGATC	-0.138
CAGTTCCA	-0.0511
AAATGGAC	0.167
AGACTAAG	0.0124
AACGATCG	0.08

Block 4
Target: Histone acetyltransferase KAT6A, winged helix 1, GST fusion (KAT6A, Homo sapiens, UniProt Q92794, residues 1-85)
Method: protein binding microarray
Form: double-stranded DNA, one strand shown
Medium: in vitro
Concentration: not given
Setting: 8-mer, flanks averaged, mean of 2 arrays, mostly near background
Relative to: not given
Direction: higher = stronger binding
Target sequence (chain): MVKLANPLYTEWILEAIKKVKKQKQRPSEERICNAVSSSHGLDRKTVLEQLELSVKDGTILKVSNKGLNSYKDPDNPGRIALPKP
Oligonucleotide	E-score
AAGATACT	0.0123
ACATTTAG	-0.191
AGTGGAGG	-0.096
CTCTGGCA	-0.237
AACACTCG	-0.018
AGTTATTA	-0.206
AGTCCTCA	-0.189
ACATGTAA	-0.076
ATATAAGG	-0.136
AGATCGTG	-0.235
CTCACGTA	-0.212
AAATAGCC	0.00669
TAACTCGA	-0.132
TACATGTA	-0.0311
TGACAGAA	-0.0879
GATCAAGC	0.022
AGCACCGA	-0.107
GTCAGACA	-0.0237
ATTCGAAT	-0.0816
AAGGACCT	0.122
CGGGCACC	0.299
AAATACTG	-0.173
CAAGTATC	-0.207
CTGAAGGA	-0.123
ACAGCCCG	0.122

Block 5
Target: RNA binding protein fox-1 homolog 2, RRM domain, GST-SBP tag (RBFOX2, Homo sapiens, UniProt O43251-10, residues 100-194)
Method: RNA Bind-n-Seq
Form: RNA
Medium: in vitro
Concentration: 365 nM
Setting: natural RNA segment, single round, ends assumed
Relative to: no-protein control
Direction: higher = stronger binding
All sequences stand within: GGGAGUUCUACAGUCCGACGAUC … UGGAAUUCUCGGGUGCCAA
Construct (chain): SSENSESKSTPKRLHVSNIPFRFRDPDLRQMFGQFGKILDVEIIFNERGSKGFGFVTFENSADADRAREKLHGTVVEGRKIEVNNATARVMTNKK
Oligonucleotide	RBNS enrichment (R)
AAUCCUAUUGACAAUGUGAGCUCCUCUGAGUGUCUGUGAAAUACUUCCAGUGUUCCUCAUCAUGUUUCCAGCAAGUCCCUUUUUCUACGUUGCAGUUUGUUUAAUGUAUG	0.813
CCCUGCCUUAACCUAGGACCAACCUGGGACCUGACCUGUGAGGACUCUGUGCUGACCUUAUUCUUGGGGAAGGGAACAGAUUUUGACCUAGAUCAAGUGUAACUUAGGUC	0.362
AGAAGACGUUCUAUGGAGAAGCACAGGGGGCAUCUAAUGAGAUUGUCAGGCCCUUGGACAAGAUCCAUAUUCUUAGAAAAUUAAUGAGUUCCAUCUCGUUAGGAAUUGGU	0.557
UUGCCUUUUGUAAAGCUCUUUUGGCUAUUGUAACUUAACAAAUAAAAUCAUAAUUGUGUGCAUCUCUAGUUCUUGAGCAGCCUGUUACUUCUGUUUCUAAACAGAGUGGG	1.5
GGCUCACACUCCCAGCCUCCGCCACGCCACGAGGGACCUGUGACCCAGUGUCAUUCAGUAUUUUGUUGAGAAGACAUUUUUAUCCUAAUGAUUUGAAAACUAAGUUCAUG	0.266
AGAUGGGCCAGGACAACCAGCAAGACACCUGUUGGGAAGCACCGGGUAUAGAAUCAUAUUUGGUGUUUGCCUGUAAGACAACUAGGGGAGCCCUUUAAGGAAAAGAUCAG	0.248
UUUUUUUUAAAGAUAAACUUGUGUAGUUUGGAAGCAGAUUUAGAAAGAUGAACUUCACUUGGGCCAGAUAGGCUGAACCAAGCUUCCUGGCGUUUGUAGAGAAAGUGGGA	1.06
CAAAACUGACCAAGGCUAUUCAGCAGUGAACCAGUGACCAAAGAAUUAAUUACCCUCCGUUUCCCACAUCCCCACUCUCUAGGGGAUUAGCUUGUGCGUGUCAAAAGAAG	1.08
AGGGAGAGCCAAUGGCCUCUGGUAGCCUUAAGCCCAAAGGGCAGUGGGAAUGUCCCCUGCCCCAACCAUCGGGUGGAGCUCCUGCUGGGCUAUGGGGAAGGGAGGUUGUG	0.697
GCCUCUUCUCUUGGAGUUCUGAGGCCUGGGGAUGCCCAGGAACACUGGGCACCUGCUGCUGUUAGGGCCAAUGCAUAGUCUCAGCACCGGUGUCCUAAGGUUAAGGCGGU	0.38
GAGGGGCUUCAGCCUGUCCCGGGGUUGCCUGAGGCAGAGCAAGACGGGUUCUCACCCCUGACUUCUGGAGGCUUCCCUUGAAGCUCUGUGCAAAAGGUGGGAGACAGAGC	0.388
CUGUAGAUAGGAGGUGCUUCUGGUGAACUGAAAGUGUCUGACUCGUGAGGAACAUGGUAGGUUCCUCACUUAUCACUGUAGAUGAUUCUAUAUGGACACAACAGUAAGAA	0.69

A few entries again (block 1):
Variant	normalised enrichment score
D8E	0.172
H13M	0.613
V3E	0.527
E10L	0.508
R5C	0.535
D8Y	0.207
D12I	0.335
L7S	0.286
P2M	0.0552
E10N	0.607
R6C	0.319
D8R	0.374
E10C	0.505
H13W	0.2
P2N	0.404
